Measured values pooled from the literature.
Every numbered part comes from another study and shows a few of its results, in no order. Changes are numbered by the printed parent chain.

Study 1
Target: CCNB2, cyclin fold, Cln2 fusion (human)
Method: yeast growth competition, sequencing
Medium: yeast
Notes: weak parent motif
Baseline: not given
Direction: higher = stronger binding
Starting sequence: WEE1 docking peptide (human); CTLRQKLIFSPCS; partner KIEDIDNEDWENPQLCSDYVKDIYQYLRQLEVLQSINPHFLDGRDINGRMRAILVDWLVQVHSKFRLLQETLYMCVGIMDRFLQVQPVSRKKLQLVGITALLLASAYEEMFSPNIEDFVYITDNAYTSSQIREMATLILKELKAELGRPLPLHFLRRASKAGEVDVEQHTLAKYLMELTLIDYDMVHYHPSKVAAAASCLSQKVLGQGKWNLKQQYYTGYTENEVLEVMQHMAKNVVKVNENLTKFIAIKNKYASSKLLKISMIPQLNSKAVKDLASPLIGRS
Variant	normalised enrichment score
ATLRQKLIFSPCS [C1A]	0.661
CTARQKLIFSPCS [L3A]	0.239
CTLAQKLIFSPCS [R4A]	0.257
CTLRQKLIFAPCS [S10A]	0.58
CTLRAKLIFSPCS [Q5A]	0.54
CTLRQKLAFSPCS [I8A]	0.705
CTLRQKLIFSPCA [S13A]	0.689

Study 2
Target: TAR DNA-binding protein 43, full length, His tag (TARDBP, Homo sapiens, UniProt Q13148, residues 1-414)
Method: RNA Bind-n-Seq
Form: RNA
Medium: in vitro
Concentration: 20 nM
Notes: 6-mer, flanks averaged, single round
Together with: 150 mM LiCl
Baseline: input library
Direction: higher = stronger binding
Strand	6-mer enrichment (R)
UGCACC	1.02
CCCGCC	1.08
UUAGAA	0.982
AUCGAA	0.809
UGCCGG	0.991
UCAGGG	0.991
GUAGGA	1.03
GAGCCG	0.967
CCACGC	0.926
UUCGUA	0.896
GCCCCA	1.13
CUGUAU	1.02
UAAAUG	1
UGAACU	0.931
AGCCAA	0.867
ACUGCA	0.856
UUUACC	1.04
GCACCU	0.958
CAAGCU	0.819
UAAUCU	0.89
CACCAU	0.992
AGGGAA	0.985
ACACUU	0.89
GAAGGU	1.05
UGGGCG	1.18

Study 3
Target: Histone acetyltransferase KAT6A, winged helix 2, GST fusion (KAT6A, Homo sapiens, UniProt Q92794, residues 85-181)
Method: protein binding microarray
Form: double-stranded DNA, one strand shown
Medium: in vitro
Concentration: not given
Notes: 8-mer, flanks averaged, mean of 2 arrays, mostly near background
Baseline: not given
Direction: higher = stronger binding
Construct (chain): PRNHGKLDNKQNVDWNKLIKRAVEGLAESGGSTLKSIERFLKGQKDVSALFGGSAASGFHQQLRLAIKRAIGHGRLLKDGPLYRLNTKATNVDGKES
Strand	E-score
TGGCGCAA	-0.0724
ACCTTGCA	-0.00449
CCTTAACA	-0.16
GCAACTCA	0.114
AACCCCCG	-0.183
ATTTGCCC	0.0408
ACGTCCTG	-0.188
CACACGGA	0.0801
CTCCGTCC	0.0866
AGAAGATC	-0.112
AACCGTCG	0.0676
GCTGCCAC	0.12
CGTCAAAC	-0.0219
GTAGGATA	-0.161
GTTTAGAA	0.0629
CTGAGCCA	-0.116
CTTACAAC	0.0134
ACATCTCG	-0.096
AGTACCCC	-0.0934
CACGGCTG	-0.0261

Study 4
Target: Ras GTPase-activating protein-binding protein 1, full length (G3BP1, Homo sapiens, UniProt Q13283)
Chain of UniProt Q13283 (whole entry, looked up): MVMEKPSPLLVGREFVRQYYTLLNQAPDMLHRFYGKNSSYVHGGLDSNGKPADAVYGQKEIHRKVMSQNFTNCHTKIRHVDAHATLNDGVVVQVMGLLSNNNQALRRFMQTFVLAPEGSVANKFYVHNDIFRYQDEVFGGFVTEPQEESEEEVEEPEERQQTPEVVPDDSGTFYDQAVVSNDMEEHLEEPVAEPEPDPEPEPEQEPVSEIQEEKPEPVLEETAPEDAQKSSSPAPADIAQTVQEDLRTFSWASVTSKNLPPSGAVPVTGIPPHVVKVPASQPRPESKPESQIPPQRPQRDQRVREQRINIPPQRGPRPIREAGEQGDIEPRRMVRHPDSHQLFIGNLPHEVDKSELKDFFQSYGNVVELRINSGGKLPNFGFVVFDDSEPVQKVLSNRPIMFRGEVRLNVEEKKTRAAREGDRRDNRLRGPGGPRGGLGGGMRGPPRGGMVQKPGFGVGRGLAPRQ
Method: RNA Bind-n-Seq
Form: RNA
Medium: in vitro
Concentration: 200 nM
Notes: whole 134-nt RNA, ends assumed
Together with: 150 mM LiCl
Baseline: input library
Direction: higher = stronger binding
All molecules: 7-deaza-guanosine replaces G
Shared flanks, not repeated: GGGAGUUCUACAGUCCGACGAUC … UGGAAUUCUCGGGUGUCAAGG
Strand	log2 enrichment
UCCUGUGCUACACAUCGUAUGUACCGAAUCGGUUUUUUGGGGUUUUUUGGUUUUUUGGGAAAGUAUUAUGUUACGCCGUUCGGAUCUGCA	0.464
GAAAUUUGGUUAUGUGGAUUUUGAAUCUGCUGAAGACCUGGAGAAAGCGUUGGAACUCACUGGUUUGAAAGUCUUUGGCAAUGAAAUUAA	-3.67
ACCAUGCAGGUGGGCAUCUUUGGGAAGUGGGGCAAGGGGGGGAUAGGGAGGGGGGUAACACUUUGGGAACUGGUGGUCCCAGGUCGUUUC	0.359
CACAGACAAUACGCACCCACACAGACACAGAGGGAAGGGGUUGGGAUGGGGACAGGGUGCACAGCAGGGCGGGGUAGGACCCCAGCCCCU	0.507
ACCAUGCAGGUGGGCAUCUUUGGGAAGUGGGGCAAGGGGGGGAUAGGGAGAAAGGUAACACUUUGGGAACAGGUGGUCCCAGGUCGUUUC	0.323
GUCCUGUGCUACACAUCGUAUGUACCGAAUCAAACCCAAAUUUUUAAACCCCCCCAAAAAAGUAUUAUGUUACGCCGUUCGGAUCUGCAC	1.11
CCUGUGCUACACAUCGUAUGUACCGAAUCGGGGUUUUUUUGGGGUUUGGGGAAAAAGGGGAAAGUAUUAUGUUACGCCGUUCGGAUCUGC	0.134
CCUCAAGUCCUGUGCUACACAUCGUAUGUACCGAAUCGGAAAGGUGGUUUGGAAAGUAUUAUGUUACGCCGUUCGGAUCUGCACUUCCAG	-1.12
GUCCUGUGCUACACAUCGUAUGUACCGAAUCGGGGUUUUUUUGGGGAAAGGGGAGGGGAAAGUAUUAUGUUACGCCGUUCGGAUCUGCAC	0.0139
CAAGUCCUGUGCUACACAUCGUAUGUACCGAAUCGGUUUUUGGAAAAAAAGGAGGAAAGUAUUAUGUUACGCCGUUCGGAUCUGCACUUC	-1.17
AAGUCCUGUGCUACACAUCGUAUGUACCGAAUCGGGAGGGAAAGGGAAAAAAAGGGAAAGUAUUAUGUUACGCCGUUCGGAUCUGCACUU	0.446

Study 5
Target: RNA binding protein fox-1 homolog 2, RRM domain, GST-SBP tag (RBFOX2, Homo sapiens, UniProt O43251-10, residues 100-194)
Method: RNA Bind-n-Seq
Form: RNA
Medium: in vitro
Concentration: 365 nM
Notes: natural RNA segment, single round, ends assumed
Baseline: no-protein control
Direction: higher = stronger binding
Shared flanks, not repeated: GGGAGUUCUACAGUCCGACGAUC … UGGAAUUCUCGGGUGCCAA
Residues (chain): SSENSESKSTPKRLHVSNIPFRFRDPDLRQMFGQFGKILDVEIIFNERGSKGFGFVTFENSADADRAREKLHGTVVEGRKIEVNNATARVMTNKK
Strand	RBNS enrichment (R)
GCCAGCGUGGCCACCAAUAAGAUGAAAACAGAAGGAAGUUACAAUAUGAAAGACAGCACCUCACUGCUCCUGCAGACACAAGGGCCACCGGGGAGUUCCUGAAAGACUAG	0.63
GACAGUACACACCUAGUGUAUUGUCACUGAAGUCUUAGGUUUAACUUUGACAUCACAGGUCCCUUCCAGGGGUACCACUGGGUAGCUGCAGUGUGCACCGGUCACUACAU	0.23
AGGCACUUUCUGUUUUUUUUAAAAAAAUAAUAAGGUCUCAUGGCUUCAUUUAGAGACCACAGUAACAACAGCAGCCCACCAAUCAGAGAAGCUGGUUGUUAUUAACCAAG	0.361
CUGCACCAGGCUGCUGCUUUGUUGUCUGUCUGCUGCCCGUCCCUCCCUGCAGGCCGCAUCAUGGUGGUGUCUAUUGCCGGGGUGGCCACAGGCUGGAUCCGAGUGUCCCC	0.21
AUACGAAGAUCUUCUCAGAUGCAAUUUUUCUUUUUCAUUUUUUAAAACUUCUAAAAAAGGUCAUGAGAUAAAACAGCUAUUCUUAUGCCUAAAUUAACAGUGGAAAAUAC	0.63
AAUUAACAAGAAAACAUAUGAACUCGCUUUAUACCUGAAGAGGUCUGUAACCAACCUUUAUCUGGCAUCAUAAUUGCAGCACAAUAAUGAUUUGCAUGAUAUCUUGAAAC	7.44
AGUAGACAUUAUGUUACUAAAUCAGCACUUUAAAAUCUUUGGUUCUCUAAUUCAUAUGAAUUUGCUGUUUGCUCUAAUUUCUUUGGGCUCUUCUAAUUUGAGUGGAGUAC	0.493
UGGAGCAUUCCAUCAAAGUUGGAAUUAGGGGAAGGAGGCCCACUGUCCUCCCCGGUCUCCUGAGAGUCAGACUGCAGGCCCUCCCCUCUCCCACUGCUUCCCUUCAGGUG	0.456
UCUAUCUGUCCUGUUCUCUGUUAUCUCCAAGUCCUGAUUCUGUUGCCUCCAGCCCGAGCCUCCUCUCCUCUUCUCUCCCGAGACACAGCCUCACCCGUCAUUUCAUUCUC	0.82
GGGAAAAGGGGGCAAAGCCCCCACUUUUUAUACACUAGGCGGGGUAGACUGCGGGGUCCUAGCCUCUUCCUCCGACUUUGCUUUUGCAGGUCUUUCACUGCAGAUGGGGC	0.559
CCUUGGCCUUUAGGUCCCUGGUGGAGGGAGAUGACCCAUGCCAGGUCCAGCACAAGAUGUGAAGAUUAAAUGCCUAUUCUUACUGAAGGUUUGAUGUGGAAUCAUGGCUG	0.553
UGGGAGAUACAAUUCCAAGUUCUCGCUUCCUCCUUUGGGCAUCUCUUCUGCCUCCCAAUCAAGGAAGCUCCAUGCUCAGGCUCUCAGCUCUCGGGCCAGUGCUCUGCUCU	0.162

Study 6
Target: ABI1, truncated, D143A, DHFR fusion (Arabidopsis thaliana)
Method: DHFR PCA, deep sequencing
Medium: yeast
Notes: methotrexate growth selection, single substitutions
Together with: (+)-ABA 58 µM
Baseline: wild-type fitted maximum
Direction: higher = stronger binding
Starting sequence: PYL1, truncated, DHFR fusion (Arabidopsis thaliana); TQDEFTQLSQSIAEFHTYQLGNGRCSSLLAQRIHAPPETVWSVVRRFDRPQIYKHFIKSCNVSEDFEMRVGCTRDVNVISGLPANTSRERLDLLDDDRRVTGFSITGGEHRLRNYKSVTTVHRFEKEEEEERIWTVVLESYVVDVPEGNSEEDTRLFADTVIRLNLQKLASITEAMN; partner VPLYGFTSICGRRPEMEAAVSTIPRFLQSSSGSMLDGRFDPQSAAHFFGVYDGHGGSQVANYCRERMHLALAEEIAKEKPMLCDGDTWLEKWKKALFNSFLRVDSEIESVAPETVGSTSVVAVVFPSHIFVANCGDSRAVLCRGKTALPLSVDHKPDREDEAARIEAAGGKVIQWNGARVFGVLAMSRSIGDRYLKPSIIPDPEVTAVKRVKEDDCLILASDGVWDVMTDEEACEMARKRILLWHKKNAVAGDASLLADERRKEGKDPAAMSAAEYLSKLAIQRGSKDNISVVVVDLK
Variant	relative binding score [%]
K58N	70
E130V	88.9
E147V	82.2
L94P	-5.54
L156T	84.9
R163P	0.103
L94F	96.4
V142T	78.5
T101H	37.8
S117K	3.83
R90V	80.2
F47Y	38.4
E174R	59.7
Q7N	87.7
A35W	-7.46
R99Q	81.3
F56Y	64
H55Q	96.8

Single results of other studies
Substance	target	assay	system	conditions	how to read	quantity	result
PhoQ, residues 284 288 289 292 302 303 SMMNNA	PhoP, residues 12 14 15 18 19 AQCLL (Escherichia coli, UniProt P23836)	Sort-seq, item: YFP reporter	E. coli	PhoQ-PhoP variant library, together with: 10 µM Mg2+	baseline: high Mg2+ state, higher = stronger signaling	fold induction	4.1

For quick reference, copied from above (study 6):
Variant	relative binding score [%]
K58N	70
Q7N	87.7
H55Q	96.8
F47Y	38.4
L94P	-5.54
T101H	37.8
R90V	80.2
L94F	96.4
L156T	84.9
A35W	-7.46
